Measurements gathered from unrelated publications.
Every numbered part comes from another study and shows a few of its results, in no order.
Sequence of UniProt Q32MK0 (whole entry, looked up): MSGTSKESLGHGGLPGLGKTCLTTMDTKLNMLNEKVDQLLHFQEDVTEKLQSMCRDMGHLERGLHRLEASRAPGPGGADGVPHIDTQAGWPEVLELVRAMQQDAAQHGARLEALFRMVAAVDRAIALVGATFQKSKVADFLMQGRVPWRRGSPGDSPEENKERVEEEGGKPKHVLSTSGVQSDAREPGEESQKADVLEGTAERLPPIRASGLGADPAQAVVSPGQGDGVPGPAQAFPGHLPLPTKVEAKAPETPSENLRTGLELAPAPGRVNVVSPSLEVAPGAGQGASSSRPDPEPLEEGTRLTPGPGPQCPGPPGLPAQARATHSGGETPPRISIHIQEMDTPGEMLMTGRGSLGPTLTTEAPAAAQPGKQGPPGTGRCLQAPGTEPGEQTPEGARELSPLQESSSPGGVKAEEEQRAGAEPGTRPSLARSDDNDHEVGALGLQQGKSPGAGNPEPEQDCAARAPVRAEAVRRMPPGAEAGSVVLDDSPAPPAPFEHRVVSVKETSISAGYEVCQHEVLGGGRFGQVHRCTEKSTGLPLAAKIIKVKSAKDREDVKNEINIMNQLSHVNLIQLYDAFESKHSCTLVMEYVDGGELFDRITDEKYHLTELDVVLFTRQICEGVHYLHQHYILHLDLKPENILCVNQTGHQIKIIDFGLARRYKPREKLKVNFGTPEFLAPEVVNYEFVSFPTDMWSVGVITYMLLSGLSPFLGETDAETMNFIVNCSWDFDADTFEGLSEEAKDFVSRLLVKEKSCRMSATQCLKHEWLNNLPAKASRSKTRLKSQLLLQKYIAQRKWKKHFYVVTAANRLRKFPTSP
Sequence of UniProt O14920 (whole entry, looked up): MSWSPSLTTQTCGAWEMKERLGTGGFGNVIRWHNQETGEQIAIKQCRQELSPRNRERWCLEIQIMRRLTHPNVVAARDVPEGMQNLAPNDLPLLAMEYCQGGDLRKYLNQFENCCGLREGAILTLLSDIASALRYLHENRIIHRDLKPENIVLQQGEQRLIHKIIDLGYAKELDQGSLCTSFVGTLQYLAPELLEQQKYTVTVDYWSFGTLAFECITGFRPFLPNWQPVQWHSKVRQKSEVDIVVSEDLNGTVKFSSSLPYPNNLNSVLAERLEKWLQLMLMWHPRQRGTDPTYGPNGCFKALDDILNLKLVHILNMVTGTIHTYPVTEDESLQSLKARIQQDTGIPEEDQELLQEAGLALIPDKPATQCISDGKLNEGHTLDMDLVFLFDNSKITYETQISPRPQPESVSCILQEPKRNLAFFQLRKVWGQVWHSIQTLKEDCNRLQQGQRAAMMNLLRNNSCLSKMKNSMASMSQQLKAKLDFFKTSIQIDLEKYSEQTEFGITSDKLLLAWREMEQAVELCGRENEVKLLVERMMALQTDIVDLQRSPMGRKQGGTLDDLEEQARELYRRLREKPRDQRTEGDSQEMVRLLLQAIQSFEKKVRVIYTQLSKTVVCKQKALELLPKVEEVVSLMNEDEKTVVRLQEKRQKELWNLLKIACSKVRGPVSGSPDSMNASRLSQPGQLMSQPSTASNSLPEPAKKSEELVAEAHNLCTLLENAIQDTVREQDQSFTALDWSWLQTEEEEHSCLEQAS
Sequence of UniProt Q12852 (whole entry, looked up): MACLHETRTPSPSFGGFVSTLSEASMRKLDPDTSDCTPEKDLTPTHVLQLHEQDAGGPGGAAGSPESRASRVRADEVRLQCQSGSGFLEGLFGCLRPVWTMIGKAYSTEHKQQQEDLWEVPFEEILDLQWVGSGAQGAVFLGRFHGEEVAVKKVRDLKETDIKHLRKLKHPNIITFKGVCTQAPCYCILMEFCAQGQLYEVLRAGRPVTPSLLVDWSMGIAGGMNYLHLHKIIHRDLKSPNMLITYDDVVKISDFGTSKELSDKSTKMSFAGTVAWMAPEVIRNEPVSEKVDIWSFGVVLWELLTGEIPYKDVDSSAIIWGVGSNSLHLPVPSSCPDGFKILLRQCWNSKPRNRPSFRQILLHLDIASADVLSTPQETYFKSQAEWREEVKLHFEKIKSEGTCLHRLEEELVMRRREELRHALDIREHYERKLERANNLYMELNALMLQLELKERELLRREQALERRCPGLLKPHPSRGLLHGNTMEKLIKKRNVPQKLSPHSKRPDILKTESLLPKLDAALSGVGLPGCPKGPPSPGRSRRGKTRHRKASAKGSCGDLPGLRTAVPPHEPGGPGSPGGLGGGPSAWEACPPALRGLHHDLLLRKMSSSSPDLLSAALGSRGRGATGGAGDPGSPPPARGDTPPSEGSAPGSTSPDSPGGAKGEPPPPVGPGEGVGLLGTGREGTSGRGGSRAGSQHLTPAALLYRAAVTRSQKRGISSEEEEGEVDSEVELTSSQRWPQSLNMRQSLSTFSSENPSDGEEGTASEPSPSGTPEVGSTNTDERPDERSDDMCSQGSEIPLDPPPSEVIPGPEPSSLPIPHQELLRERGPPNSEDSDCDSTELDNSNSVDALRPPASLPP

Sample 1 — organism: Plasmodium berghei; action: inhibitor; cells: Huh-7; strain: GFP-expressing sporozoites, liver stage; concentration: 10 µM; time: 24 h; reference: untreated control
Compound | infection rate
CC1(C)S[C@@H]2[C@H](NC(=O)[C@H](N)c3ccccc3)C(=O)N2[C@H]1C(=O)O | 86.9%
CC(=O)Nc1ccc(O)cc1 | 112%
CC1(C)S[C@@H]2[C@H](NC(=O)C(C(=O)O)c3ccccc3)C(=O)N2[C@H]1C(=O)O (stereo partly shown) | 97.9%

Sample 2 — technique: protein binding microarray; molecule type: double-stranded DNA, one strand shown; matrix: in vitro; concentration: not given; reference: not given; reading: higher = stronger binding
Target: Histone acetyltransferase KAT6A, winged helix 1, GST fusion (KAT6A, Homo sapiens, UniProt Q92794, residues 1-85)
Setting: 8-mer, flanks averaged, mean of 2 arrays, mostly near background
Residues (chain): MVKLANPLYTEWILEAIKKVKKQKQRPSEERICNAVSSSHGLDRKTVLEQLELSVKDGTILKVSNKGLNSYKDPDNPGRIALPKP
Sequence | E-score
CTGGATGC | -0.0395
AAAGAACT | -0.154
TTAGGAAA | -0.121
AATGTACA | -0.086
AAGCGAAC | 0.0871
CAATTTCG | -0.072
TACAGTGA | -0.185
CAGCTACC | -0.189

Sample 3 — observed: cell-free assay; technique: competition with immobilised ligand; concentration: 1 µM
SMILES: CO[C@H]1CC[C@H](CNc2ccc(S(=O)(=O)NC(=O)c3ccc(N4CCN(CC5=C(c6ccc(Cl)cc6)CC(C)(C)CC5)CC4)cc3Oc3cnc4[nH]ccc4c3)cc2[N+](=O)[O-])CC1
target | remaining binding
Myosin light chain kinase (MYLK3, Homo sapiens, UniProt Q32MK0) | 100%
Mitogen-activated protein kinase kinase kinase 12 (MAP3K12, Homo sapiens, UniProt Q12852) | 100%
Inhibitor of nuclear factor kappa-B kinase subunit beta (IKBKB, Homo sapiens, UniProt O14920) | 100%

Sample 4 — technique: RNAcompete; molecule type: RNA; matrix: in vitro; concentration: 20 nM; setting: 7-mer, probes averaged, single round; reference: mean of 7-mers; reading: higher = stronger binding
Target: PABPC1L2, full length, GST fusion (mouse, UniProt A0ABA7IW68)
Target sequence (chain): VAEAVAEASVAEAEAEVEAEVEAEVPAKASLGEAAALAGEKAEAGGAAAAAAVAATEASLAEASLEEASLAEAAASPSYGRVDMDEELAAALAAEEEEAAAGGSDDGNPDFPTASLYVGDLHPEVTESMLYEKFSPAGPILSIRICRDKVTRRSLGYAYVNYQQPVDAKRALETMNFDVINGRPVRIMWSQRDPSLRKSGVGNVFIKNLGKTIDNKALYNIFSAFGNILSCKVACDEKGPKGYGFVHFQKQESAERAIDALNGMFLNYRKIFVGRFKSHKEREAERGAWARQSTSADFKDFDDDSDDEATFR
Sequence | 7-mer Z-score
CCUGCGU | -0.26
AGGCGGG | 0.615
UACGUAG | -0.108
AGUUAAU | -0.142
UACGCUC | -0.168
AAAGGUU | 0.387
UCGAUAA | 0.128
GUGGCGG | 0.26

For quick reference, copied from above (sample 2):
Sequence | E-score
AATGTACA | -0.086
CAATTTCG | -0.072
TTAGGAAA | -0.121
